Assay results gathered from unrelated publications.
Parts stem from different laboratories: compare values within a part only.

Study 1 — method: RNA Bind-n-Seq; form: RNA; medium: in vitro; tested at: 365 nM; reference: no-protein control; reading: higher = stronger binding; quantity: RBNS enrichment (R)
Target: RNA binding protein fox-1 homolog 2, RRM domain, GST-SBP tag (RBFOX2, Homo sapiens, UniProt O43251-10, residues 100-194)
Setting: natural RNA segment, single round, ends assumed
Shared flanks, not repeated: GGGAGUUCUACAGUCCGACGAUC … UGGAAUUCUCGGGUGCCAA
Target sequence (chain): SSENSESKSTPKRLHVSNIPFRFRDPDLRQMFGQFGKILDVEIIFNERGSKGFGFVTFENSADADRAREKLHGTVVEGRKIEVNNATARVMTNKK
CUGUCCCCUUCGACCCUCAGCCCUCUGGUGCCGCUCUGCCCGAUGCACAGCCACCUCAGCCAGCCCCCAGGUAGAAACGUGGGUUAAGCUCUUCCUGCCCCGUUCAGCUU: 0.333
UUCCAGUGAAUGUUUGACCUAGGGAAUGCAGCCACACUGGAAGCACCAAUAGAGGGCUAAGGUCAGACGGAGCAUGGCCCCACGAGCCCCAGAUUCCCUGAAAAUCCUGA: 6.21
CAUUUAAAAUUGUAAUAGAUCUUAACCAUUUUCCCCCUCACCCUAACUCUCUUAUUCUGCCGCCACAAUGCAAGCAUAGUUUGAUGUUUUCGUUAUUGCCUUUUUUGAGA: 0.819
AGAGACCAAGCCCUGCUGCAGAUUCGUCAGGCCAGGUGAAAGGGCCAGGCAGUUGCAGCUGAUGAUGUAAAUAUUUUGUACAGUAGAUAAAUAAAUGUUUAAAAGAACUA: 0.602
AACAACCACAAGAAAGGGAGAAGAGGUGCCUGUGGGAGAUUUUGCAGACCUAUUGUGGGUAUAGGUAUUUUCUUCCUGGGGAAGAAUUCAGUUCCCGUCUCAGCUGUACU: 0.513
GCUGCUAAAGUUGCAAGUGAUUGAUAAUGGAUUUUUAACAGAGAAGUCUUUGUUUUUGAAAAACAAAAAUCAAAAACAGUAACUAUUUUAUAUGGAAAUGUGUCUUGAUA: 0.985
CGAGAUCUGGGAACAGAAGAGUGAUGACAGACUGGAGACCCAGGUCGUUCAUCUGACCACGGGAUGUGUUUCUGAAGAAAAUCUGGAUGCCUGGUGUGUUAGGAACUGAA: 0.488
UUCUAAAGUGGCGUUUGCUGUGUGCUUGAGAGUAACACUGCACGCUGCAGGGGCUGUUGCAGCAGUCAGUCCCAGGAAGCCACAGCGCUUGUAGGAUCUGCUAGGACCCU: 0.805
AGGGGUUUGCCCACUUUCCUCUUUUUGGGGUUGGUGAGAGGGCAAACCCUGAUAUUUUUACUGUGAAGGUGUUUUCAGUUGUUCUUAGGAAGAACAGCUGAUAGAAAUUC: 0.311
AGUUCCCCAGGCGCUGUAGACACAACAUGAAUCGGGCUCUCUGCUCUCUCCUUAGGGAGCUCGAGUCCUGGUGGGGAGAACAGGAGUAAACAAGGACUUGACAAAGCUGA: 0.402
AUAAACCACUAUAUAUUUUAUGAAUUACAUGUGGUUUUAUAUACACACACACACACACACACACACACACACACACACUCUGACAUUUUAUUACAAGCUGCAUGUCCUGA: 8.95
UCCUGGGUAGAAUCUUAAUAAUAGAAGGACUUAGAGAGAAAAUCAAAUCCACCCUCCUUGUGGGGAAGAUGGUAAUAUGGGACCAAGAGCAGCAAACGUGCUCACCUGGU: 0.704

Study 2 — method: universal PBM; form: double-stranded DNA, one strand shown; medium: in vitro; tested at: 600 nM; reading: higher = stronger binding; quantity: E-score
Target: Sal-like protein 4, full length isoform A (SALL4, Homo sapiens, UniProt Q9UJQ4, residues 1-1053)
UniProt Q9UJQ4, sequence (whole entry, looked up): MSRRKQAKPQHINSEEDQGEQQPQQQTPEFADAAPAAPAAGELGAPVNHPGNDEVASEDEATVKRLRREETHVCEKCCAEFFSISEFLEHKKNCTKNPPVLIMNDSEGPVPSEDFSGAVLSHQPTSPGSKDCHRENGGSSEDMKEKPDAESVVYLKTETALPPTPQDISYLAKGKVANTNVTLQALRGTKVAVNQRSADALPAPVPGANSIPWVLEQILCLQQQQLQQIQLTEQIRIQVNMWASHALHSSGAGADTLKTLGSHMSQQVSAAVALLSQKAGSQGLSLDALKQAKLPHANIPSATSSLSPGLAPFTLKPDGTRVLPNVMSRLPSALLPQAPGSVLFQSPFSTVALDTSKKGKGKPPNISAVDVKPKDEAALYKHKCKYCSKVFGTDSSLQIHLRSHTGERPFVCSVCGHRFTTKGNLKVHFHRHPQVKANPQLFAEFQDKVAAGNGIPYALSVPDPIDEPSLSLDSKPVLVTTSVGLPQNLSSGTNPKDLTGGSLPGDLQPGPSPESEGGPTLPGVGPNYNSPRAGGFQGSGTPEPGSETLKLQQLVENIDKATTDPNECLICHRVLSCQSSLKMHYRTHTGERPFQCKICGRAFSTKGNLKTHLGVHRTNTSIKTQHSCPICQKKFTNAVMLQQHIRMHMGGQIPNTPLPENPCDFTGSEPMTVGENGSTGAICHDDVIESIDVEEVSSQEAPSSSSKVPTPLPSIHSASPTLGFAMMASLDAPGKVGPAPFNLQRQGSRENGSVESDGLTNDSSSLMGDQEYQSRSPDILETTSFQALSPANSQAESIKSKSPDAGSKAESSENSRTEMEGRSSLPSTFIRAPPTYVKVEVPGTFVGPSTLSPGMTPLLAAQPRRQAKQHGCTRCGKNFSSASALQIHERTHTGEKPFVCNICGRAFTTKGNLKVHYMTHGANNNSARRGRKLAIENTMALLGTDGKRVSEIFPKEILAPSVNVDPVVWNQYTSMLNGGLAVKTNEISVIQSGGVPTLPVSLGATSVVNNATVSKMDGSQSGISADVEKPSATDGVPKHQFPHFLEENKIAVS
Setting: 8-mer, flanks averaged, mean of replicates
ATAGTCGA: 0.0962
AGGGACAT: 0.0282
ACCGGCGA: -0.298
TGCTTAAA: 0.218
ATCGTTTG: 0.134
ATCGATCG: -0.021
TAGAGCTA: -0.0456
ATACAGGA: 0.13
CGACTGAC: -0.152
AGGTAATC: 0.0812
CGGCGCTC: -0.313
CGTTACAG: -0.0531
TGGCATAA: 0.299
AAGGTAGC: -0.183
AGTGGTGA: -0.0138
AAAAAAAG: 0.258

Study 3 — method: RNA Bind-n-Seq; form: RNA; medium: in vitro; tested at: 200 nM; setting: whole 134-nt RNA, ends assumed; added: 150 mM LiCl; reference: input library; reading: higher = stronger binding; quantity: log2 enrichment; each molecule: 7-deaza-guanosine replaces G
Target: Fragile X messenger ribonucleoprotein 1, C-terminal low-complexity region (Fmr1, Mus musculus, UniProt P35922)
Shared flanks, not repeated: GGGAGUUCUACAGUCCGACGAUC … UGGAAUUCUCGGGUGUCAAGG
CACAGACAACACGCACCCACACAGACACAGAGGGAAGGGGUUGGGAUGGAAACAGGGUGCACAGCAGGGCGGGGUAGGACCCCAGCCCCU: 0.37
UGGCCCUGGUGGCAUGCGGGGAGGAAGAGGUGGCCUCAUGGAUCGUGGUGGUCCCGGUGGAAUGUUCAGAGGUGGCCGUGGUGGAGAAAG: -0.077
CAAGUCCUGUGCUACACAUCGUAUGUACCGAAUCGGGGUUUGGGGUUUGGUUUGGGAAAGUAUUAUGUUACGCCGUUCGGAUCUGCACUU: -1.51
UGGGAGGUGGAUUUUGUUUAUUUUUUUAGCUCAUUUACAGGGGUGGGAAUUUUUUUUUAAUAUGUGUCAUGAAUAAAGUUGUUUUUGAAA: 1.28
UCAAGUCCUGUGCUACACAUCGUAUGUACCGAAUCGGAGGAAAGGAAAAAAAGGAAAGUAUUAUGUUACGCCGUUCGGAUCUGCACUUCC: -0.867
AGUCCUGUGCUACACAUCGUAUGUACCGAAUCGGGGCCCCGGCCCCGGGCCCCGGGGAAAGUAUUAUGUUACGCCGUUCGGAUCUGCACU: -3.57
UAACUUUAGAGGAGGAUCUGAUGGAUAUGGCAGUGGACGUGGAUUUGGGGAUGGCUAUAAUGGGUAUGGAGGAGGACCUGGAGGUGGGAA: 1
UCCUCAAGUCCUGUGCUACACAUCGUAUGUACCGAAUCGGAGGGAGGAGGGGAAAGUAUUAUGUUACGCCGUUCGGAUCUGCACUUCCAG: -0.408
CAAGUCCUGUGCUACACAUCGUAUGUACCGAAUCGGUUUUUGGAGGUUUUUUUGGAAAGUAUUAUGUUACGCCGUUCGGAUCUGCACUUC: -1.15
UAACUUUAGAGGAGGAUCUGAUGGAUAUGGCAGUGGACAUGGAUUUGGGGAUGGCUAUAAUGGGUAUGGAGGAGGACCUGGAGGUGGCAA: 0.356
CACAGACAACACGCACCCACACAGCCACAGAGGGAAGGGGUUGGGAUGGGGACAGGGUGCACAGCAGGGCGGGGUAGGACCCCAGCCCCU: 0.317

Study 4 — method: protein binding microarray; form: double-stranded DNA, one strand shown; medium: in vitro; tested at: not given; reference: not given; reading: higher = stronger binding; quantity: E-score
Target: Histone acetyltransferase KAT6A, winged helix 1, GST fusion (KAT6A, Homo sapiens, UniProt Q92794, residues 1-85)
Setting: 8-mer, flanks averaged, mean of 2 arrays, mostly near background
Construct (chain): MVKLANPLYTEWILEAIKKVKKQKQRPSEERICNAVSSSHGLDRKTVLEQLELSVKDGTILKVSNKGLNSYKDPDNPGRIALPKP
GGCAATCA: -0.0642
CGCATGGC: 0.231
AGTGACAC: 0.0174
AAATCGGA: -0.145
CGTGATAG: 0.0802
CGGATTTC: 0.208
ACGGGAAG: 0.27
CGAAATGC: 0.0143
AGAGCCAT: -0.0801
GTCAAGGA: -0.137
AAAGATAA: -0.133
AACGGGCG: 0.384
TCGTACGA: -0.0998
CAGAATTA: 0.0167
GACCGTTA: 0.127
AGTGTAAG: -0.0789

Study 5 — method: RNA Bind-n-Seq; form: RNA; medium: in vitro; tested at: not given; reference: input RNA pool; reading: higher = stronger binding; quantity: bound/input enrichment
Target: RING finger protein unkempt homolog, zinc fingers 1-6, GST-SBP tag (UNK, Homo sapiens, UniProt Q9C0B0, residues 30-357)
Setting: RNA with constant flanks, human-mouse chimeric sites, ends assumed
Shared flanks, not repeated: GGGAGUUCUACAGUCCGACGAUC … CAACAGAGGAUUGAGCAUCA
Construct (chain): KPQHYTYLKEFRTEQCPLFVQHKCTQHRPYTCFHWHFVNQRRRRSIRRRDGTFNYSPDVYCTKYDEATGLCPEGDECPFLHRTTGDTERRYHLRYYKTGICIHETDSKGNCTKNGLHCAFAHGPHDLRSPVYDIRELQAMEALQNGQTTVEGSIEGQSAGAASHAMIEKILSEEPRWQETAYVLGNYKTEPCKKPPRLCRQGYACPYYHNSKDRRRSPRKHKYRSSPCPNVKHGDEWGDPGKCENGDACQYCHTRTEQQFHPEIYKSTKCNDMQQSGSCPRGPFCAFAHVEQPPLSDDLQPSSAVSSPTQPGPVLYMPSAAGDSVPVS
CGCUGGCCCAAGCUGAUGGACUCUGAUGGCCUCCAUCAAGGUAUUAUGUGUGCCUUCUCUUAGUCCCUGUUUUCGGGAUGUUAUGAAUCUCAGUACUGUUUGACAGAAGCACCAGCUUUG: 0.131 ratio
GAGUCGAGCAAACUUGAAACAAUUCGUUAUCUUGCAGCCUCAGUGUUCACUUGCUUGGCGAUAGCAUUGGGGUUUUAUAGGUUCUGGGGAAGUAGUAGACGAUGAUGUCCUGCUGUGUGC: 0.718 ratio
AAAGUGAUGACUAUGUUUGUCCAACGACAGGUAUUUUCUGAGAACAAAGAUGAGAUUGCGUUAGUCCUCUAUGGCACAGAUGGCACUGAUAAUGCCCUUGCUGGCAAGGACCAGUAUCAG: 0.0716 ratio
GAAACAUUUAAAUUUAAAGAAGCUGUUGUUCUAGGAAGCACGGACUUUCUAGAAGAUGAUAUAGAAAAAAUUGUAGAAGAACUGGGGAAAGAGUAUAAGGGCAACGCCUACCAUCUGAUG: 1.56 ratio
GCAUAUGGUUAUCGAGGAAAGGACUGUAGAGCGAAUGUAUACCUGCUUCCCACAGGGAAAAUAGUUUAUUUUAUCGCCUCAGUGGUAGUCCUGUUUAAUUAUGAGGAGAGGACUCAGCGA: 20.8 ratio
GAUCAUGAACCACCAUCAGAAAUGAAGAUGAGAUUACCCAGACGAGCCAAAACAGCUGCGCUACAGAAAAAGUAAACUUAACCUUGCGAGUUCCUUAAUGAAGAUACAAGUUAAGAGAGC: 0.166 ratio
CCCACGCCUCCUCUCCCACAGGCCCAAGAUAUAACCCACCAGUGCCUUUUGUCUUCCUGUCAGCUCUGUCAAUCACGGCCCUGCCUUCACGCCCACACCAAGUGCCCAAAGUGGGGAGGG: 0.577 ratio
AUCAAAUACUUUGGGGACAUCAUUAGUGUGGGACAGAGAUUGUUGCAAGGAGCUCGGAUCUUAGGGAUUCCAGUUAUCAUAACGGAACAAUACCCCAAAGGACUUGGGAGCACGGUUCAA: 0.236 ratio
GGAAUUGCUGAUUCAAGUAAGUUUGAGUAUCACAAUGUUAGCUUUCUAAUUCCACACAAGUACUUGGUUUUUACAGUUUAUAAUCUGACAUCACCCCAGCGCCAUUUGUAAAGAGCAACU: 0.489 ratio
GCGGCAGAAUCAUGGAGGACAUAAUGCACUUGCCCAGAGCGCGCGUCAACGCCAGCAUGUUACCACAGUAUAUCGACCGGCCCGUGUGCUUCGUAGGGAAGCUGGAAAAGAUUCAUCCCA: 0.152 ratio
UCUGAGGUACCACUGAAGAGACCUUAAAAGAAUCAUUUGAGGGCUCUGUUCGUGCAAGAAUAGUCACCUGACCGGGAACUGGUUCUUCCAAAGGGUUUGGUUUUGUAGACUUUAAUAGUG: 0.816 ratio

Other studies, line by line
PhoQ, residues 284 288 289 292 302 303 SLGVVW
fold induction (PhoP, residues 12 14 15 18 19 GHCSL (Escherichia coli, UniProt P23836); Sort-seq, measured: YFP reporter; E. coli; PhoQ-PhoP variant library, added: 10 µM Mg2+; reference: high Mg2+ state, higher = stronger signaling): 17.8

Some of these lines once more (study 4):
AGTGACAC: 0.0174
AAATCGGA: -0.145
CGTGATAG: 0.0802
CGGATTTC: 0.208
ACGGGAAG: 0.27
CGAAATGC: 0.0143
AGAGCCAT: -0.0801
GTCAAGGA: -0.137
AAAGATAA: -0.133
AACGGGCG: 0.384
